Assay results pooled from the literature.
Each line is one published result; not all experiments were run side by side. ± gives the spread as reported.
Succinate dehydrogenase complex: Succinate dehydrogenase complex (Sus scrofa, UniProt A5GZW8+D0VWV4+Q007T0+Q0QF01)
Chain of UniProt A5GZW8 (whole entry, looked up): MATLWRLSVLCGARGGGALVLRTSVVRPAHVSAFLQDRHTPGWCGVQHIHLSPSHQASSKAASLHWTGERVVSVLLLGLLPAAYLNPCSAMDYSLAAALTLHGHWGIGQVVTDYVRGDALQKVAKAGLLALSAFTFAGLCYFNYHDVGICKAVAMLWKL
Chain of UniProt D0VWV4 (whole entry, looked up): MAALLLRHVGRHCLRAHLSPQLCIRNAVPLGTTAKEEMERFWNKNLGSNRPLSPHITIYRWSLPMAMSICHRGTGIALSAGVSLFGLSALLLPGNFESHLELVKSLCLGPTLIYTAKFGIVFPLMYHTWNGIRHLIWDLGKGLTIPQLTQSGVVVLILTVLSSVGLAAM
Chain of UniProt Q007T0 (whole entry, looked up): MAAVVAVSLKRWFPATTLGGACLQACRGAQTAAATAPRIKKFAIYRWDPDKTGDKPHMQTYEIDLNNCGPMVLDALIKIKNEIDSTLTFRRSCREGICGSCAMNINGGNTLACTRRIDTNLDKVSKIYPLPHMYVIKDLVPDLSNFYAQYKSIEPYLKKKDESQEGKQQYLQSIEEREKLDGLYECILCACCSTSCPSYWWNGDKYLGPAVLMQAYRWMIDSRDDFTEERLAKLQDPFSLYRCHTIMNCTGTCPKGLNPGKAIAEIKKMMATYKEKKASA
Chain of UniProt Q0QF01 (whole entry, looked up): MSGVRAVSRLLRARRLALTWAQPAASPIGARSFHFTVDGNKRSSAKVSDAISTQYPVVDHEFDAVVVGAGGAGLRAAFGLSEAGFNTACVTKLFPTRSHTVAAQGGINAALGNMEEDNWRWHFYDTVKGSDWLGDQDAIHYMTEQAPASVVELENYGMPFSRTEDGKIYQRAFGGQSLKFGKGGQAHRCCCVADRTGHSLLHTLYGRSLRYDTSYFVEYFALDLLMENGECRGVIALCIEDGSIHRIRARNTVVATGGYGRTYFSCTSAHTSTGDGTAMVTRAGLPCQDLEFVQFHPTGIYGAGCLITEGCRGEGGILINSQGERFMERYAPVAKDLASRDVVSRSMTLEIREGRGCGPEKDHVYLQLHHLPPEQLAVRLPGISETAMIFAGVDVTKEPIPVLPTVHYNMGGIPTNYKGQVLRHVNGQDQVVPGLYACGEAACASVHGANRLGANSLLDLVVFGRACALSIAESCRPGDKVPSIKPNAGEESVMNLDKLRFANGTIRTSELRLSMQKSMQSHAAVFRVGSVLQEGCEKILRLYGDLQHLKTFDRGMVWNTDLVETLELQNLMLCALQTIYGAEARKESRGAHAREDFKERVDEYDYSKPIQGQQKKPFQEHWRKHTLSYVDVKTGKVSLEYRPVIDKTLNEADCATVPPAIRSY
GSTO1: Glutathione S-transferase omega-1 (GSTO1, Homo sapiens, UniProt P78417)
Chain of UniProt P78417 (whole entry, looked up): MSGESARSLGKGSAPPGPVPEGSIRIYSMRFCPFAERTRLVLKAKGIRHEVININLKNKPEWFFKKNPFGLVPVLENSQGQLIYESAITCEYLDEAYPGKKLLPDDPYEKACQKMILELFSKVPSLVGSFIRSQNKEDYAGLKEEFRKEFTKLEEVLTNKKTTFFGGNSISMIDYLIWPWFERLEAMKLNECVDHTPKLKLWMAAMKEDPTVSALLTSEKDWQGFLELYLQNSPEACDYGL
AGER: Advanced glycosylation end product-specific receptor (AGER, Homo sapiens, UniProt Q15109)
Chain of UniProt Q15109 (whole entry, looked up): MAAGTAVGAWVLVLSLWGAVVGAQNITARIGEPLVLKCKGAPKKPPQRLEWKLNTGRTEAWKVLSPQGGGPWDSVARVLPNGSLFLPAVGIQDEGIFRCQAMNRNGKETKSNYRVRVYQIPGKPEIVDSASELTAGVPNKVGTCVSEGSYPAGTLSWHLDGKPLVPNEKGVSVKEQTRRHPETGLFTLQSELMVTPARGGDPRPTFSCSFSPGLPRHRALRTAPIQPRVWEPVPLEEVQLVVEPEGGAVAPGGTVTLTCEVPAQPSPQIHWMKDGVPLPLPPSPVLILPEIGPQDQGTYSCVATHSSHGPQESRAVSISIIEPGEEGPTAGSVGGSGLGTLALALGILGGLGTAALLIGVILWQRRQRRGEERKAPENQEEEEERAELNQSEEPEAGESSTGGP
Chain of UniProt Q05097 (whole entry, looked up): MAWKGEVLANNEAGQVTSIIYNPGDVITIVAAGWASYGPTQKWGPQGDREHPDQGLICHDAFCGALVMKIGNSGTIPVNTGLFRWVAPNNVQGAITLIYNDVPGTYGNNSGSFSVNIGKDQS
Chain of UniProt Q01650 (whole entry, looked up): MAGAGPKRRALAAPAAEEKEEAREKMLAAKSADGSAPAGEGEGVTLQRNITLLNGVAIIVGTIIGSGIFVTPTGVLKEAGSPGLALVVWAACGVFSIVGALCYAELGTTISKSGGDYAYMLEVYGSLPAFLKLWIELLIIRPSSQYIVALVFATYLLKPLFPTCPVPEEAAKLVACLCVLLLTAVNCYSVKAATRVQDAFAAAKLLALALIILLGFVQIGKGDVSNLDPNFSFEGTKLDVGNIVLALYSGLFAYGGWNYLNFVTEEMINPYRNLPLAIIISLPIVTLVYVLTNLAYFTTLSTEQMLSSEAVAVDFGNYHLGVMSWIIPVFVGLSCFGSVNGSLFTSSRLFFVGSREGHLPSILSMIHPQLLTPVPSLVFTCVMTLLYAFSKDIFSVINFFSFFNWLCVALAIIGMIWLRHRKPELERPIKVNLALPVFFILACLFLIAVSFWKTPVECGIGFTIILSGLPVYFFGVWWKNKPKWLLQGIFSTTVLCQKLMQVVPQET
Chain of UniProt P40261 (whole entry, looked up): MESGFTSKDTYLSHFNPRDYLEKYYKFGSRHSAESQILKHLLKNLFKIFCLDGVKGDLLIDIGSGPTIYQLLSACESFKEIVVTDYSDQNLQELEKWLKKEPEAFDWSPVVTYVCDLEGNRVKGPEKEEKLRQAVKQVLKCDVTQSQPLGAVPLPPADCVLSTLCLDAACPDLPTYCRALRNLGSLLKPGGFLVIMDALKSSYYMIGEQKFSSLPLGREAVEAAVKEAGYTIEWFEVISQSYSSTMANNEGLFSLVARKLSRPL
Chain of UniProt Q04760 (whole entry, looked up): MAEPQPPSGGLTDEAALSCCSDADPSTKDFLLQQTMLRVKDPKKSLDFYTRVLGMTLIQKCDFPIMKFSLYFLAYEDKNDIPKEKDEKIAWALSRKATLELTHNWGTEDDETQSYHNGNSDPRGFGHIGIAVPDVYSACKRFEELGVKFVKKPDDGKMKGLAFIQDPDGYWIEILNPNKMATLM
Chain of UniProt P63104 (whole entry, looked up): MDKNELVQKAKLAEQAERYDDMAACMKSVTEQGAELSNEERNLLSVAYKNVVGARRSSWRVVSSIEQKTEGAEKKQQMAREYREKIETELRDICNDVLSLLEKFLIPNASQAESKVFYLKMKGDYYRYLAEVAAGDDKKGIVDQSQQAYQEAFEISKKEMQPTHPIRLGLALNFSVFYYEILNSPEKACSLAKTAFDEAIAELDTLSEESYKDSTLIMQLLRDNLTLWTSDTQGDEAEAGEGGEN
Chain of UniProt Q99873 (whole entry, looked up): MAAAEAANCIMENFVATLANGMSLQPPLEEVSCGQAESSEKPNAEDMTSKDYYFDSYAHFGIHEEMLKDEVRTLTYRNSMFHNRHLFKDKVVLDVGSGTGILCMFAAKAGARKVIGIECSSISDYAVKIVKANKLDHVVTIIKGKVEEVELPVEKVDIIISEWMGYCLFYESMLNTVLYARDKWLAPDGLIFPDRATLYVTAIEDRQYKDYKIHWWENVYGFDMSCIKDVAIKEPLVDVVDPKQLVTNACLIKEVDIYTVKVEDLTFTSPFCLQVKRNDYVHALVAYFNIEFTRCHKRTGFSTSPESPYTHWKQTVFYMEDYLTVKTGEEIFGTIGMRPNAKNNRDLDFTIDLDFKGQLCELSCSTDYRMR

Structure (SMILES)	target	test	test system	conditions	scale	inhibition
O=C(Nc1ccccc1Nc1ccccc1)c1cccnc1F	Succinate dehydrogenase complex	enzyme activity, double-antibody sandwich ELISA		1 µM		6.41%
O=C(O)c1c(O)c(/N=N/c2ccccc2)cc2ccccc12	Lactoylglutathione lyase (GLO1, Homo sapiens, UniProt Q04760)	enzyme activity, inhibitor		25 µM		75.1%
CC(=O)Nc1cc(COc2c(Cl)cc(CC(N)C(=O)O)cc2Cl)c2oc(-c3ccccc3)nc2c1 (stereo not shown)	Large neutral amino acids transporter small subunit 1 (SLC7A5, Homo sapiens, UniProt Q01650)	L-[14C]leucine uptake, inhibitor	Xenopus laevis oocytes expressing SLC7A5	10 µM, 30 min, Na+-free, with: 50 µM L-[14C]leucine		inhibited
CC[C@H](C)[C@H](NC(=O)[C@H](CCCNC(=N)N)NC(=O)[C@H](CCCCN)NC(=O)[C@@H]1CCCN1C(=O)[C@@H]1CCCN1CCCN(CC[C@H](N)C(=O)O)C[C@H]1O[C@@H](n2cnc3c(N)ncnc32)[C@H](O)[C@@H]1O)C(=O)N[C@@H](C)C(N)=O	Nicotinamide N-methyltransferase (NNMT, Homo sapiens, UniProt P40261)	enzyme activity, inhibitor		100 µM		< 30%
O=[N+]([O-])c1ccc(O)c(O)c1	PA-I galactophilic lectin (lecA, Pseudomonas aeruginosa, UniProt Q05097)	ligand displacement, FP		4 mM		33%
CN(C)S(=O)(=O)c1cc(C(=O)O)ccc1NCCCCCCCC(F)(F)F	Solute carrier family 12 member 5 (SLC12A5, Homo sapiens, UniProt Q9H2X9)	thallium influx	HEK293 transfected with SLC12A5	10 µM	reference: DMSO control	4.6 ± 6.9%
CC[C@H](C)[C@H](NC(=O)[C@H](CCCNC(=N)N)NC(=O)[C@H](CCCCN)NC(=O)[C@@H]1CCCN1C(=O)[C@H](CO)n1cc(CN(CC[C@H](N)C(=O)O)C[C@H]2O[C@@H](n3cnc4c(N)ncnc43)[C@H](O)[C@@H]2O)nn1)C(=O)N[C@@H](C)C(N)=O	Protein arginine N-methyltransferase 1 (PRMT1, Homo sapiens, UniProt Q99873)	enzyme activity, inhibitor, fluorescence		50 µM		< 15%
C/C(=N\NC(=O)c1cccc(S(=O)(=O)N2CCOCC2)c1)c1cc(Cl)ccc1O	Lysine-specific histone demethylase 2 (KDM1B, Homo sapiens, UniProt Q8NB78)	enzyme activity, inhibitor, TR-FRET		10 µM		< 50%
Oc1ccc([C@H]2Oc3cc(O)cc(O)c3C[C@H]2O)cc1	maltase, rat	enzyme activity, inhibitor	rat intestinal brush border vesicles	10 µM		25.5%
O=C(CCl)N(CCNC(=O)C(F)(F)F)c1ccc([N+](=O)[O-])cc1	GSTO1	probe labelling, gel-based competitive ABPP	MDA-MB-435 soluble proteome	1000 nM, with: SE-Rh probe		100%
COc1cc(N(C(=O)c2cc3ccc(Cl)cc3s2)c2cc(OC)c(OC)c(OC)c2)cc(OC)c1OC	AGER	binding to AGE-BSA, competitive ELISA		100 µM, 60 min		0%
O=C(NC1CCCCC1)C(c1ccccn1)N(C(=O)CCl)c1ccc(F)c(F)c1 (racemic)	GSTO1	competitive ABPP	MDA-MB-435	1 µM, 12 h, 10% serum		95%
CCCCCCCCCCCCCC(=O)N[C@@H](CO)C(=O)N[C@H](C(=O)N[C@@H](CCCNC(=N)N)C(=O)N[C@@H](Cc1ccc(O)cc1)C(=O)N[C@@H](CO)C(=O)NCC(=O)N[C@@H](Cc1c[nH]cn1)C(=O)N[C@@H](COP(=O)(O)O)C(=O)N[C@@H](CC(C)C)C(=O)O)[C@@H](C)CC	14-3-3 protein zeta/delta, with GPIb-IX (YWHAZ, Homo sapiens, UniProt P63104)	GPIb-IX binding, co-immunoprecipitation	platelets	concentration not given		~80%
COc1ccc(NC(=O)c2cc3ccc(C)cc3s2)cc1	AGER	binding to AGE-BSA, competitive ELISA		100 µM, 60 min		37%
CC(C)C[C@H](NC(=O)[C@H](CCC(N)=O)NC(=O)[C@H](CCCNC(=N)N)NC(=O)[C@H](CCCNC(=N)N)NC(=O)[C@@H](NC(=O)[C@H](CCCNC(=N)N)NC(=O)[C@@H](NC(=O)[C@H](CO)NC(=O)[C@@H](N)CS)[C@@H](C)O)C(C)C)C(N)=O	xanthine oxidase	superoxide radical signal, EPR		10 µM, 10 min, with: xanthine		92.5 ± 1.8%
Oc1ccc(CCC(O)CC(O)CCc2ccc(O)cc2)cc1 (stereo not shown)	Amine oxidase [flavin-containing] B (Maob, Rattus norvegicus, UniProt P19643)	enzyme activity, inhibitor		50 µg/mL		57.2 ± 3.6%
O=C(NCc1ccccc1)C(c1cccnc1)N(C(=O)CCl)c1ccc(F)cc1 (racemic)	GSTO1	probe labelling, gel-based competitive ABPP	MDA-MB-435 soluble proteome	100 nM, with: SE-Rh probe		90%
O=C(Nc1ccccc1Nc1ccccc1)c1nccnc1Cl	Succinate dehydrogenase complex	enzyme activity, double-antibody sandwich ELISA		8 µM		48.9%
Cc1cc(-c2c[nH]nc2C(F)(F)F)nc2ccc3[nH]ncc3c12	Receptor-type tyrosine-protein kinase FLT3 (FLT3, Homo sapiens, UniProt P36888, ITD)	enzyme activity, inhibitor, ADP detection		0.1 µM		22%

A few entries again:
Structure (SMILES)	target	test	test system	conditions	scale	inhibition
Oc1ccc(CCC(O)CC(O)CCc2ccc(O)cc2)cc1 (stereo not shown)	Amine oxidase [flavin-containing] B (Maob, Rattus norvegicus, UniProt P19643)	enzyme activity, inhibitor		50 µg/mL		57.2 ± 3.6%
O=C(Nc1ccccc1Nc1ccccc1)c1cccnc1F	Succinate dehydrogenase complex	enzyme activity, double-antibody sandwich ELISA		1 µM		6.41%
CC[C@H](C)[C@H](NC(=O)[C@H](CCCNC(=N)N)NC(=O)[C@H](CCCCN)NC(=O)[C@@H]1CCCN1C(=O)[C@H](CO)n1cc(CN(CC[C@H](N)C(=O)O)C[C@H]2O[C@@H](n3cnc4c(N)ncnc43)[C@H](O)[C@@H]2O)nn1)C(=O)N[C@@H](C)C(N)=O	Protein arginine N-methyltransferase 1 (PRMT1, Homo sapiens, UniProt Q99873)	enzyme activity, inhibitor, fluorescence		50 µM		< 15%
